Measurements of several laboratories.
A part holds a random share of what one study measured. “And” joins repeats or separate records; there may be more than shown. Substitutions count along the parent as printed.
UniProt Q9P1W9, sequence (whole entry, looked up): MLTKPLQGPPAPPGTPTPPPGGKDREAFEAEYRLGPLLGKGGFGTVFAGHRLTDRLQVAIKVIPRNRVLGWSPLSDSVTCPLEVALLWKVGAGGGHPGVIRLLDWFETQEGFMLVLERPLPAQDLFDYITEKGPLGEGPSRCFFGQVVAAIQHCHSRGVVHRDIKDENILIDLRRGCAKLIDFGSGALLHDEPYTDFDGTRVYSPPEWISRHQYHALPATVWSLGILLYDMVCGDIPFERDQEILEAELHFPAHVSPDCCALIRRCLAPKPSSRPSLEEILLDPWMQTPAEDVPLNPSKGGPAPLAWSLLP
UniProt O43293, sequence (whole entry, looked up): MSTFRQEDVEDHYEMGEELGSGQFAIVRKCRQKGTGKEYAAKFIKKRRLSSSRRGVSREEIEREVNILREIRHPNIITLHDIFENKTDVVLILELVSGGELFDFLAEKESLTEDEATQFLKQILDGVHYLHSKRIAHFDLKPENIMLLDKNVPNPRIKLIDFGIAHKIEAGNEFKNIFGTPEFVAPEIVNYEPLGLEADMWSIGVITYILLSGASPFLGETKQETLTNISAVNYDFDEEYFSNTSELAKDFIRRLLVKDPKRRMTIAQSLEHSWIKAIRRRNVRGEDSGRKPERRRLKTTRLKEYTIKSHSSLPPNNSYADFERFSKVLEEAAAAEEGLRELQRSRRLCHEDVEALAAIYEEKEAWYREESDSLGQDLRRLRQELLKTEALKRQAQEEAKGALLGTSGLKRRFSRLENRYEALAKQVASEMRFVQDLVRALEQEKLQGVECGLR
UniProt Q9HBY8, sequence (whole entry, looked up): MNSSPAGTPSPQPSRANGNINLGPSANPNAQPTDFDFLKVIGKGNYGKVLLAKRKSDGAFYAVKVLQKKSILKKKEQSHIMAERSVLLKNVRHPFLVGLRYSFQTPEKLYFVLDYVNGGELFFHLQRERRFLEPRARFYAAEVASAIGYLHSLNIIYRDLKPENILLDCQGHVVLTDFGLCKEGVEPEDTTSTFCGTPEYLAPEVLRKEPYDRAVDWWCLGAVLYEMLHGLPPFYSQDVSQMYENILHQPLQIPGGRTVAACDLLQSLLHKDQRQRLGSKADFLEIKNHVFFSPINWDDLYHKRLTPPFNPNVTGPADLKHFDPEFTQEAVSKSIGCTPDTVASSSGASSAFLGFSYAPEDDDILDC
UniProt Q8IY84, sequence (whole entry, looked up): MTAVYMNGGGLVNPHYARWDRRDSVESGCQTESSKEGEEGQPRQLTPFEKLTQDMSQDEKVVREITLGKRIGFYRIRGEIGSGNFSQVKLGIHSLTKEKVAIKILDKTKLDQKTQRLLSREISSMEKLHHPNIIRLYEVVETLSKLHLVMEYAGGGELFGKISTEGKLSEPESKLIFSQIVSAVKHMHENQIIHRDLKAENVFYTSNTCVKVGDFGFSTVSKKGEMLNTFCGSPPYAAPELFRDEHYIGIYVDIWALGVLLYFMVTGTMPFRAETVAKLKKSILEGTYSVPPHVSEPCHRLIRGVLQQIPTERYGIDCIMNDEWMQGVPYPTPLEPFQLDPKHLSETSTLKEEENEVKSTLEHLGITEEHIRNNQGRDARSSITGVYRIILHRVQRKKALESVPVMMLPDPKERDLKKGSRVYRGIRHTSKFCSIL
UniProt P07949, sequence (whole entry, unmodified, looked up): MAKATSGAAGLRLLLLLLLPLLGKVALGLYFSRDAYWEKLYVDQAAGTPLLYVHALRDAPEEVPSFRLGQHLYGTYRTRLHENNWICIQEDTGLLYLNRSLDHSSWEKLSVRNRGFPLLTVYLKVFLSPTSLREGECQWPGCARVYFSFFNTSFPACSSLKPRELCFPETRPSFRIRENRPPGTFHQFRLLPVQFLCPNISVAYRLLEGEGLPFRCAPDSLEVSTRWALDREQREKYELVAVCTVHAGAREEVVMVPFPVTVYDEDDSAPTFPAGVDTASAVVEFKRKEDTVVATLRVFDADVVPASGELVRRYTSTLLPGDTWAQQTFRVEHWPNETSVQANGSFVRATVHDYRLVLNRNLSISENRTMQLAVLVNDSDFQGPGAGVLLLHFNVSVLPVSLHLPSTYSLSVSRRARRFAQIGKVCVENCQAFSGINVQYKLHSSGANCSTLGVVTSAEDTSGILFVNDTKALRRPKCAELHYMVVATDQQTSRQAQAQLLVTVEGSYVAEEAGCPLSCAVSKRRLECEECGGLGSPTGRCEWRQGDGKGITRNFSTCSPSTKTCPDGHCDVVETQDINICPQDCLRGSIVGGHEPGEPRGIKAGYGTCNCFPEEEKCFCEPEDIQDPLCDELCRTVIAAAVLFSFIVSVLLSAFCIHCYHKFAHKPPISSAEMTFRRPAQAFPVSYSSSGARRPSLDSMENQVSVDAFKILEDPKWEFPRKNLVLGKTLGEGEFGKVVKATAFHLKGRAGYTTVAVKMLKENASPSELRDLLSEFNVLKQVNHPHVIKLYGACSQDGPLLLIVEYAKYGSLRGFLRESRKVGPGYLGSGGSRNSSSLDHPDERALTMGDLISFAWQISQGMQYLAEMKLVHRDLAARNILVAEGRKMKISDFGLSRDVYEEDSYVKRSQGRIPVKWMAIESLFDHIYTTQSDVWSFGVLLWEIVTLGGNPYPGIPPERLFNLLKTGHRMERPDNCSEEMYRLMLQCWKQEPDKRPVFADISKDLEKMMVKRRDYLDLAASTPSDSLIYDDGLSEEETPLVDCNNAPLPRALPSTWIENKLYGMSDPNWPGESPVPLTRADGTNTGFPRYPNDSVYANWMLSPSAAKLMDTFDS
UniProt Q00537, sequence (whole entry, looked up): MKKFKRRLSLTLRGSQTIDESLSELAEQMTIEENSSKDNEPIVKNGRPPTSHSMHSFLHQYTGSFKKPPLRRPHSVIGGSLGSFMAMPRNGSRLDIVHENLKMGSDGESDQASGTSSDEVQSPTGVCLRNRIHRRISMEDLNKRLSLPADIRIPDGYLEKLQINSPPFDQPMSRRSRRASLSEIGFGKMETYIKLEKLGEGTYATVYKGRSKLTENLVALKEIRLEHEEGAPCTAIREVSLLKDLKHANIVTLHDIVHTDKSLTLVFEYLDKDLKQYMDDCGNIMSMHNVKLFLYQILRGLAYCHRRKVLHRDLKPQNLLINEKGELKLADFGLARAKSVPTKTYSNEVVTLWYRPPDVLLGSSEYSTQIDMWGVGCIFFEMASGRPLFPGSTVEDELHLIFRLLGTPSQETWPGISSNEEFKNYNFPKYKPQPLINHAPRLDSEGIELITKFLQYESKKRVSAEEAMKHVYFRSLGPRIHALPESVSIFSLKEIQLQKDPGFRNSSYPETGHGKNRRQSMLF
UniProt P19784, sequence (whole entry, looked up): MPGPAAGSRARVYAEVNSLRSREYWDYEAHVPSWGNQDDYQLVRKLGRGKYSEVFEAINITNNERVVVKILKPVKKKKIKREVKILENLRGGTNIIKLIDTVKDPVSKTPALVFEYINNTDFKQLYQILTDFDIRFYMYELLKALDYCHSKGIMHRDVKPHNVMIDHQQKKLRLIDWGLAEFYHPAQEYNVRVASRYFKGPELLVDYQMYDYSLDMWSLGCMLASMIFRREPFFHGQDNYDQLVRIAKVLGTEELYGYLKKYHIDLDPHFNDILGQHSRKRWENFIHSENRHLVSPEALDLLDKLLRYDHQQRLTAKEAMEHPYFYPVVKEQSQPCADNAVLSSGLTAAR
UniProt Q9H4B4, sequence (whole entry, looked up): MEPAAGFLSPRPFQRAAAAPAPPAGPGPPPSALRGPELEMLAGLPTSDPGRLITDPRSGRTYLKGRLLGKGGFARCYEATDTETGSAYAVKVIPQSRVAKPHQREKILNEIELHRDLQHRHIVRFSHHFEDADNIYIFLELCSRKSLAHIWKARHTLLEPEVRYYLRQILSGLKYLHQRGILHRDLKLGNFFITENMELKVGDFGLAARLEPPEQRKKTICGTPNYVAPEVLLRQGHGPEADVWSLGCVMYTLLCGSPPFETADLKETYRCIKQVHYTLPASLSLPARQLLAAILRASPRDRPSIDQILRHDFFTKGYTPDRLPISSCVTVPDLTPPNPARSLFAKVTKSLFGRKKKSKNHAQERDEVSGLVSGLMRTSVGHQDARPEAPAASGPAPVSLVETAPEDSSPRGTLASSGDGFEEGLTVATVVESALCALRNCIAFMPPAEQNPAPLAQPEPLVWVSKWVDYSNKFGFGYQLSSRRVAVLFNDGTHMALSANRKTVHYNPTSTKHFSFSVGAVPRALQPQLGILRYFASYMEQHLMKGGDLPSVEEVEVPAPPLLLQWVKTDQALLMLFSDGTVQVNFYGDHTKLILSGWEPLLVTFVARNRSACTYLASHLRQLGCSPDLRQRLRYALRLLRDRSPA

Block 1
Cell line: mouse MPNST tumor cells
Method: high-content immunofluorescence imaging
Refers to: nuclear SOX9
Concentration: 10 µM
Time: 12 h
Notes: mean of 2 replicates
Reference: DMSO control
Direction: higher = more nuclear SOX9
Endpoint: nuclear SOX9 intensity
COc1nccnc1NS(=O)(=O)c1cccc(Cl)c1Cl: 91 % of DMSO
CN1CCC[C@@H]1CCO[C@](C)(c1ccccc1)c1ccc(Cl)cc1: 218 % of DMSO and 201 % of DMSO
O=C(O)c1n[nH]c2c1CC1CC21 (centres unmarked): 94.6 % of DMSO

Block 2
Target: OGT, full length, His-tagged (human)
Method: phage display, sequencing
Medium: in vitro
Concentration: 1 µg OGT
Notes: single substitutions, 15-mer displayed peptide, unchanged parent 16.7
Reference: input library
Direction: higher = stronger binding
Endpoint: fold enrichment
Starting sequence: peptide; NSEYMPQYQIIFAHQ
N1H: 13.9 fold
Q9L: 6.99 fold
E3G: 12.9 fold
E3D: 19.2 fold
I11H: 18.8 fold
I10H: 0.526 fold
H14E: 7.25 fold
A13M: 13.6 fold

Block 3
Species: human
Medium: microsomes or S9
Concentration: 2 µM
Time: 0.5 h
Endpoint: remaining compound
Clc1n[nH]c2c(CN(Cc3ccccc3)CC3CCCO3)cncc12 (centres unmarked): 81.4%
COc1c(Cl)ccc(C2=NOC(c3cc(N)c(Cl)c(C(=O)O)n3)C2)c1F (centres unmarked): > 99%
O=C(O)Cn1cnc(S(=O)(=O)N2CCCC2)c1: 98.4%

Block 4
SMILES: CNCc1ccccc1-c1csc([C@H](C)Nc2nc(C)nc3cc(OC)c(OC)cc23)c1
Read-out: cell-free assay
Method: competition with immobilised ligand
Concentration: 1 µM
Endpoint: remaining binding
PLK3 (Homo sapiens, UniProt Q9H4B4): 87%
CSNK2A2 (Homo sapiens, UniProt P19784): 100%
PIM2 (Homo sapiens, UniProt Q9P1W9): 100%
PIK3C2G (Homo sapiens, UniProt O75747): 100%
SGK2 (Homo sapiens, UniProt Q9HBY8): 100%
PIK3CA (Homo sapiens, UniProt P42336, H1047L): 88%
CDK17 (Homo sapiens, UniProt Q00537): 100%
BMPR2 (Homo sapiens, UniProt Q13873): 100%
SLK (Homo sapiens, UniProt Q9H2G2): 100%
DAPK3 (Homo sapiens, UniProt O43293): 100%
NIM1K (Homo sapiens, UniProt Q8IY84): 90%
RET (Homo sapiens, UniProt P07949, V804M): 100%
STK39 (Homo sapiens, UniProt Q9UEW8): 100%

Further values, each from its own experiment
CC(C)n1cnc(-c2ccc(F)cc2)c1-c1ncc(C(=O)Nc2ccc(N3CCN(C)CC3)cc2)[nH]1 — patients with dyspnoea (phase 2a trial; idiopathic pulmonary fibrosis patients; dose not given, adverse event grade 4, all dose arms pooled): 0%
c1ccc(Oc2ccc(Nc3c4c(nc5ccccc35)CCC4)cc2)cc1 — cytotoxicity (HepG2; resazurin; 0.0166 µM, 48 h): 4% and 3%

For quick reference, copied from above (block 2):
E3D: 19.2 fold
I11H: 18.8 fold
